Measurements gathered from unrelated publications.
Several values in a cell are separate wells, animals, samples, runs or records. ± marks the error that the study gave.

Compound	target or system	assay	system	conditions	scale	measurement	result
C[C@@H](C(=O)O)c1ccc(-c2ccccc2)c(F)c1	–	HPLC	sample solution	concentration not given, 12 h, room temperature, solution stability	–	peak area change	≤ 2%
O=C(Nc1cnccc1-c1ccc([18F])nc1)c1ccnc(NC(=O)C2CC2)c1	–	–	FVB/NJ mice, both sexes, liver	intravenous, 40 min, median, no P-gp inhibitor	–	SUV	8.66
[2H]C([2H])(N)C([2H])([2H])NC(=O)c1cc(C2CC2)nc2c1cnn2C(C)C	–	metabolic stability	mouse, liver microsomes	–	–	scaled CLint	< 38 mL/min/kg
CCCCN1C(=O)c2cccc3c(NCCCCN4CCOCC4)ccc(c23)C1=O	–	–	DMF	–	–	fluorescence quantum yield	0.41
CC(C)(O)c1ncc([S@](N)(=O)=NC(=O)Nc2c3c(cc4c2CCC4)CCC3)s1	–	–	healthy human	oral, 300 mg single dose, capsule formulation	–	total adverse events	33%
Cc1c(Cc2cccc(OC(C)(C)C(=O)O)c2)c2ccc(C(=O)N[C@@H](C)c3cccc(Cl)c3)cc2n1C	–	–	human liver microsomes	–	–	half-life	38.4 min
Cc1cccc(-c2cccc(C)n2)n1.Cc1cccc(-c2cccc(C)n2)n1.F[P-](F)(F)(F)(F)F.F[P-](F)(F)(F)(F)F.[Ru+2].c1cc2ccc3ccc(-c4nc5c6cccnc6c6ncccc6c5[nH]4)c4ccc(c1)c2c34	–	–	aerated acetonitrile	298 K	reference: Ru(bpy)3(PF6)2	singlet oxygen quantum yield	0
COCC1CN(C2CCN(c3cc(OC)c(Nc4ncc(Br)c(Nc5ccc6c(c5P(C)(C)=O)OCCO6)n4)cc3C)CC2)C1	–	phase 1 trial	human, advanced EGFR-mutant NSCLC	oral, dose not given	–	patients with any adverse event	100%
[123I]c1ccc2nc(-c3ccc(-n4ccnn4)nc3)cn2c1	–	–	male Wistar rat, stomach	intravenous, 4 MBq, 1 h	–	tracer uptake	0.866 %ID/g
CN(O)C(=O)CCC(=O)NCCCN(CCCCN(CCCNC(=O)CCC(=O)N(C)O)C(=O)CCC(=O)N(C)O)C(=O)CCC(=O)N(C)O.[89Zr]	–	–	mouse, fat	4 h	–	tracer uptake	0.01 %ID/g
NC(=O)[C@H](CCC(=O)O)NC(=O)[C@H](CCC(=O)O)NC(=O)[C@H](Cc1ccc(O)cc1)NC(=O)[C@H](Cc1ccccc1)NC(=O)[C@H](Cc1ccccc1)NC(=O)OCC1c2ccccc2-c2ccccc21	–	CD spectroscopy	peptide nanofibres	–	–	β-turn content	14.3%
CC(=O)N([O-])CCCCCNC(=O)CCC(=O)N([O-])CCCCCNC(=O)CCC(=O)N([O-])CCCCCN.[89Zr+4]	–	–	mouse, fat	24 h	–	tracer uptake	0.03 %ID/g
COC1CN([C@H]2CC[C@H]([C@@]3(C)Oc4c(Cl)cc(C(=O)NCc5c(SC)cc(C)[nH]c5=O)c(C)c4O3)CC2)C1	–	RNA-seq, refers to: GIPC2 mouse homolog	mouse, HT-1376 xenograft, whole blood	dose not given	reference: vehicle	log2 fold change	1.78
CCCCN1C(=O)c2cccc3c(NCCCCCCCCCCN4CCOCC4)ccc(c23)C1=O	–	–	acetonitrile	–	–	fluorescence lifetime	9.5 ns
C=C(NC(=O)c1csc(-c2nc3c(cc2O)-c2nc(cs2)C(=O)NC(C(C)O)C(=O)NC(=C(C)OC)c2nc(cs2)C(=O)NC2c4nc(cs4)C(=O)NC(COC(=O)c4c5c6c(cccc6n4O)COC(=O)C(OC4CC(C)(O)C(N(C)C)C(C)O4)C2OC5)c2nc-3cs2)n1)C(N)=O (centres unmarked)	–	–	Sprague-Dawley rat, both sexes, plasma	intravenous infusion, 6 mg/kg, multiple doses, day 1	–	Tmax	4.8 min
[11CH3]N1CCC(NC(=O)c2cc(-c3c(O)cc(O)cc3Oc3ccc([N+](=O)[O-])cc3)on2)CC1	–	–	Wistar rat, female, healthy, lungs	intravenous, 18.5 MBq, 10 min	–	SUV	1.4 ± 0.1
CCC1CNC(CC)CN(C(C(=O)[O-])c2ccc(C(=O)[O-])cc2)C(CC)CN(CC(=O)[O-])C(CC)CN1.[Mn+2] (centres unmarked)	–	ICP-MS	BALB/c mouse, brain	intravenous, 0.05 mmol/kg, 30 min, without anaesthesia	–	Mn content	0.64 ± 0.02 µg/g
Oc1ccnc(-c2cc(O)ccn2)c1.[Cl-].[Cl-].[Ru+2].c1ccc(-c2ccnc3c2ccc2c(-c4ccccc4)ccnc23)cc1.c1ccc(-c2ccnc3c2ccc2c(-c4ccccc4)ccnc23)cc1	–	–	acetonitrile	acidic form	–	singlet oxygen quantum yield	0.68
CC1Cc2ccccc2N1C(=O)CN1CCN(Cc2ccccc2)CC1 (centres unmarked)	–	–	female NMRI mice, whole blood	intraperitoneal, 10 mg/kg free base, 60 min	reference: brain over blood	brain to blood ratio	8.18 and 9.11
O=S(=O)(NCc1ccncc1)c1ccc(C2CCCCC2)cc1	–	–	CK-p25 mouse and littermates	intraperitoneal, 0.3 mg/kg daily, 6 weeks	–	swim performance	no effect
C=CC(=O)Nc1cc(Nc2nccc(-c3c[nH]c4ccccc34)n2)c(OC)cc1N(C)CCN(C)C	–	storage stability	human plasma	30 d, -80 °C, MQC level	–	recovery	98.7%
CN(C)S(=O)(=O)c1ccc(S(=O)(=O)N2CCC(n3c(=O)[nH]c4ccccc43)CC2)cc1	–	–	mouse	intraperitoneal, 6 mg/kg, 1 day	reference: day 0	body weight	94.8%

Compound	target or system	assay	system	conditions	scale	measurement	result
O=C([O-])CN1CCN(CC(=O)[O-])CCN(CC(CCCc2ccccc2[N+](=O)[O-])N(CC(=O)[O-])CC(=O)[O-])CC1.[90Y+3] (centres unmarked)	–	TLC	human serum	48 h, pH 7, 37 °C	–	intact radiolabelled complex	99.8 ± 0.1%
C=C[C@]1(C)C[C@@H](OC(=O)CSc2ccc(NC(=O)c3ccco3)cc2)[C@]2(C)[C@H](C)CC[C@]3(CCC(=O)[C@H]32)[C@@H](C)[C@@H]1O	–	–	Mycoplasma gallisepticum-infected chickens, plasma	intramuscular, 5 mg/kg, 4 h	–	plasma concentration	110 ng/mL and 125 ng/mL and 116 ng/mL and 117 ng/mL and 165 ng/mL and 70.6 ng/mL and 108 ng/mL
C#CCOCCOCCOCCOCCn1cc(C(ONC(=O)/C=C/C(C)=C/C2(C)Oc3cc(N(C)C)ccc3C2=O)(c2ccc(C)cc2)c2ccc(C)cc2)nn1 (centres unmarked)	–	HPLC	aqueous buffer, 20% acetonitrile	concentration not given, 1260 min, pH 3	reference: initial prodrug amount	release from prodrug hydrolysis	12.5%
CSCC[C@H](N)C(=O)N[C@@H](CO)C(=O)N[C@H](C(=O)N[C@@H](C)C(=O)NCC(=O)N[C@@H](CC(C)C)C(=O)N[C@@H](CCCCN)C(=O)N[C@@H](CCCCN)C(=O)N[C@@H](CCC(N)=O)C(=O)N[C@@H](Cc1c[nH]c2ccccc12)C(=O)N[C@@H](Cc1ccc(O)cc1)C(=O)N[C@@H](CCCCN)C(=O)N[C@@H](C)C(=O)N[C@@H](CO)C(=O)N[C@@H](CCC(N)=O)C(=O)N[C@@H](CC(C)C)C(=O)N[C@H](C(=O)N[C@@H](CO)C(=O)N[C@@H](CCC(=O)O)C(=O)N[C@@H](CCCCN)C(=O)N[C@H](C(=O)NCC(=O)NCC(=O)N[C@@H](C)C(N)=O)C(C)C)C(C)C)C(C)C	–	circular dichroism titration	100% DOPS liposomes	50 µM, pH 7.4, 20 °C	–	ΔG of binding	-7.4 kcal/mol
O=C(O)CN1CCN(CC(=O)O)CCN(CC(O)CN(CC(O)CN2CCN(CC(=O)O)CCN(CC(=O)O)CCN(CC(=O)O)CC2)C[C@H](O)[C@@H](O)[C@H](O)[C@H](O)CO)CCN(CC(=O)O)CC1 (some centres unmarked)	–	pH-potentiometry, spectrophotometry, refers to: CuH2L	–	25 °C, 0.15 M NaCl	–	log K	9.39
O=C(Nc1cnccc1-c1ccc([18F])cc1)c1ccnc(NC(=O)C2CC2)c1	–	ex vivo gamma counting	FVB/NJ mice, both sexes, large intestine	intravenous, 120 min, mean, P-gp inhibitor pretreatment, added: tariquidar 15 mg/kg iv	–	SUV	1.26
CN1CCCNC(=O)c2cccc(c2)C(=O)NCCCN(C)CCCNc2cccc3c2C(=O)c2cccc(c2C3=O)NCCC1	–	–	mouse xenograft model	dose not given, day 8	–	body weight	26 g and 31 g
Cc1cc(-c2ccc(C(=O)[C@@H]3CCCC[C@H]3C(=O)Nc3cnn4c3C(=O)NCC4)cc2)[nH]n1	–	–	human, urine	oral, 200 mg, 72-96 h	reference: dose	radioactivity recovery per interval	0.09% and 0.02% and 0.03% and 0.05%
CN1CCC[C@]1(C)/C=C/S(=O)(=O)NC(=O)Nc1c2c(cc3c1CC(O)C3)CCC2 (some centres unmarked)	–	–	human, plasma	oral, 100 mg twice daily of parent drug, day 14, metabolite of dosed drug	–	Cmax at second steady-state dose	10100 ng/mL
O=C([O-])CN1CCN(CC(=O)[O-])CCN(C(CO)C(O)CO)CCN(CC(=O)[O-])CC1.[Dy+3] (centres unmarked)	–	–	cynomolgus monkey, liver	dose not given, day 5	–	lanthanide tissue concentration	4.2 ± 1.6 nmol/g
CC(C)C[C@@H]1NC(=O)[C@H](CCCCN)NC(=O)CNC(=O)[C@H]2CCCN2C(=O)[C@H](CCCCN)NC(=O)[C@H](CC(C)C)NC(=O)[C@H](CCCCN)NC(=O)[C@H](CC(C)C)NC(=O)[C@H](CCCCN)NC(=O)C(N)CCC=CCCCC(C(N)=O)NC(=O)[C@H](CCCCN)NC(=O)[C@H](CC(C)C)NC(=O)[C@H](CCCCN)NC1=O (some centres unmarked)	–	RP-HPLC C18	–	hydrophobicity	–	retention time	15.5 min
CNC(NN=Cc1ccc([N+](=O)[O-])o1)=[S+][Au-][Cl]	–	UV-Vis	dichloromethane	0.1 mM, time without spectral change	–	solution stability	≥ 72 h
CNc1cc(C)c(C(N)=O)cn1	–	–	Han Wistar rats, male, plasma	oral, 30 mg/kg, 1.00 h	–	concentration at time	83.5 µM
C[C@@H](Nc1nc2c(cnn2C(C)(C)C)c(=O)n1Cc1cccc(F)c1)c1ccc(Cl)cc1	–	–	male C57BL/6J mice, brain	oral, 10 mg/kg, 1 h	–	brain concentration	236 ng/g
COc1cccc(OC)c1-c1cc(C(=O)NC2(C(=O)O)C3CC4CC(C3)CC2C4)nn1-c1ccc(C(=O)N(C)CCOCCOCCN(C)C(=O)[C@H](CCCCNC(=O)[C@H](CC(C)C)NC(=O)C2OC2C(=O)O)NC(=O)CN2CCN(CC(=O)[O-])CCN(CC(=O)[O-])CCN(CC(=O)[O-])CC2)cc1C(C)C.[177Lu+3] (mixture of isomers)	–	–	mouse, HT-29 xenograft, liver	168 h post injection	–	tissue uptake	0.33 %ID/g
CCCC[C@H](NC(C)=O)C(=O)N[C@@H](CO)C(=O)N[C@H](C(=O)N1CCC[C@H]1C(=O)N[C@]1(C)CCCCCCC=CCCC[C@@](C)(C(=O)N[C@@H](Cc2ccccc2)C(=O)N[C@@H](CCCCN)C(=O)N[C@@H](CCCNC(=N)N)C(=O)N[C@@H](CC(C)C)C(=O)N[C@@H](CCC(N)=O)C(N)=O)NC(=O)[C@H](CCCNC(=N)N)NC(=O)[C@H](CCCC)NC(=O)[C@H](CC(C)C)NC(=O)[C@H](CCCNC(=N)N)NC(=O)[C@H](CCCNC(=N)N)NC(=O)[C@H](CCCNC(=N)N)NC1=O)[C@@H](C)O	proteinase K	LC-MS	–	25 µM, 369.1 min, pH 7.4	–	remaining peptide	52%
O=C(NS(=O)(=O)c1cccs1)c1cc2ccccc2n1Cc1ccc(Br)c2ccccc12	–	–	KM mouse, chronic hyperuricaemia model	dose not given, day 25	–	body weight	37.4 g and 40.2 g and 38.4 g and 34.6 g
O=C(Nc1cccc(CO)c1)c1cc(-c2ccccc2)n(-c2ccccc2)n1	–	–	human liver microsomes	4 h	–	depletion	< 15%
COc1ccc(C(N)=O)cn1	–	–	Han Wistar rats, male, plasma	oral, 30 mg/kg, 0.25 h	–	concentration at time	113 µM
CN1CCC[C@]1(C)/C=C/S(=O)(=O)NC(=O)Nc1c2c(cc3c1CCC3O)CCC2 (some centres unmarked)	–	–	human, plasma	oral, 12.5 mg twice daily of parent drug, day 14, metabolite of dosed drug	–	Cmax at second steady-state dose	10900 ng/mL
C/C(N)=N/C(=N\S(=O)(=O)c1ccc(C(F)(F)F)cc1)N1C[C@H](c2ccccc2)C(c2ccc(Cl)cc2)=N1	–	–	C57BL/6 mouse, kidney	intravenous, 10 mg/kg	–	AUC(0-inf)	67500 ng·h/mL
C=CC(=O)Nc1cc(Nc2nccc(-c3cn(C)c4ccccc34)n2)c(OC)cc1N(C)CCNC	–	storage stability	human dried blood spots	24 h, on ice, LLOQ level	–	recovery	85.2%

Repeated from above:
Compound	target or system	assay	system	conditions	scale	measurement	result
CC(=O)N([O-])CCCCCNC(=O)CCC(=O)N([O-])CCCCCNC(=O)CCC(=O)N([O-])CCCCCN.[89Zr+4]	–	–	mouse, fat	24 h	–	tracer uptake	0.03 %ID/g
CC1Cc2ccccc2N1C(=O)CN1CCN(Cc2ccccc2)CC1 (centres unmarked)	–	–	female NMRI mice, whole blood	intraperitoneal, 10 mg/kg free base, 60 min	reference: brain over blood	brain to blood ratio	8.18 and 9.11
O=C(Nc1cnccc1-c1ccc([18F])nc1)c1ccnc(NC(=O)C2CC2)c1	–	–	FVB/NJ mice, both sexes, liver	intravenous, 40 min, median, no P-gp inhibitor	–	SUV	8.66
